Measured values pooled from the literature.
Each numbered part is a random draw from the data of one study; scales do not carry over between parts. Positions count from the first letter of the parent shown.

Block 1
Target: RNA binding protein fox-1 homolog 2, RRM domain, GST-SBP tag (RBFOX2, Homo sapiens, UniProt O43251-10, residues 100-194)
Technique: RNA Bind-n-Seq
Molecule type: RNA
Matrix: in vitro
Tested at: 365 nM
Notes: natural RNA segment, single round, ends assumed
Relative to: no-protein control
Direction: higher = stronger binding
Measurement: RBNS enrichment (R)
Shared flanks, not repeated: GGGAGUUCUACAGUCCGACGAUC … UGGAAUUCUCGGGUGCCAA
Target sequence (chain): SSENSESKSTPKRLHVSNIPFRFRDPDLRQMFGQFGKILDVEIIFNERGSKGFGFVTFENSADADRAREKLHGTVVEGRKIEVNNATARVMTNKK
Sequence = AUACUUUUAUUUUCACUAGUUUUGCUUCUAGGCAAAAAGCAAAAUAAACUUUUCAUCUUAAAGAAAAUCUAGUUUGAUUGUUUUUAUUUACCAGGGGAAGGACUAUUAAG; result = 0.826
Sequence = AUUAAAAAUAUUUUGAUUUAAAUAACAAAAAUAAUACCAGAUUUUAAGCCGUGGAAAAUGUUCUUGAUCAUUUGCAGUUAAGGACUUUAAAUAAAUCAAAUGUUAACAAA; result = 0.578
Sequence = CCCAUGAUUCAGCCACGGACUCCAAUGCCCAGCUCCUCUCCCCAAAACAAUCCCGACAAUCCCUUAUCCCUACCCCAACCCUUUGCGGCUCUGUACACAUUUUUAAACCU; result = 1.2
Sequence = CAAAGUUGGAUGGGCAGGUGCAGACGAGGCCCAGCCUUCAUCCUGCUUUCCCUCGCAAGCCCUUCUAUAGCUCCCAGCCCACGGGAGAGGCCAUGAGGAGCGCGAGGUCG; result = 0.185
Sequence = GUUCCCUUCUGCAUCUCUGGCCCUGUGGACAGAACACUUAUUGCUAGGUUAUCUAUCGUGUGGCAGGGCUGGCCAGCACCGUUGGGUCUCACCUGGCAUGAGAUCUGAAG; result = 1.55
Sequence = CUUUCAGUGAAGAAUCCUCUAAGAUAAAACUUCUAUUUAAAGACUUUAACUAGAAAGUGUUUAUUUUGGCUACAUUGUUCACCUUCUGCUGUAUUGGUAUUUGUCUGUUG; result = 0.486
Sequence = AUAUUUUCUUCCCCAUCCGCUGGUUUACAUUUCUGUAACAGUUGCAUAUGGCUAGCACCAUGGACUAUAUAUACCCACUGACCGAUUUUCAUUAAAUUUUGUCUUAUAAA; result = 0.712
Sequence = GAUACUUUUAAUUUACAAAGUAAUUUUGUUUUAUGUUUUAAAGUGUAAAUUAAAAAUGCUUUAGUUUACCUGGCAUUUGGGUAUGCUCAGUAAUGCCUGCCAGCAGCACC; result = 0.705
Sequence = CUCCAUUUUAAAUUUGAGUUUCCCUUUCGUUUUUACUCACCACCAAAGAAUCUCAAAUGUAAAAUUUUAUAUUGGGUUUGAACCACUGACGUGUCCAUUCUGAUAUAUGC; result = 0.504
Sequence = AUACCCUUCUCUCUCCUCUUACUCGUACUGAGACUCCAGUUGUAACUGCUUGUUUUCGCUCACUUGCCUCCCCUUCAGACAUGUAAGUGCAGUCUCCAAAGCUUGACGUU; result = 2.19
Sequence = CGAUAAUCAUCCACAUAGCCACCUCUGUCCUCGCAGUUUGGAUGCCUUUUUUUGACACCUGCGCUAGGUUCUUGUAUGCUGGCUUUUCUUAAAGGAACAGCAGAGUAGAA; result = 0.601
Sequence = AGGCUUUGGGGACCUCUGUUCCUGGGCCACCCUGCCCGUGGGCACCCUCUACCUUGGGGCACGUUCUAGCACCCCAUUCCUGACUCCUGGAAGAUGCACUUGCCCCGACA; result = 0.612

Block 2
Target: Interferon regulatory factor 5, full length, phosphomimetic (IRF5, Homo sapiens, UniProt Q13568-2, residues 1-514, S451D/S453D/S456D/S462D)
Technique: protein-binding microarray
Molecule type: double-stranded DNA, one strand shown
Matrix: in vitro
Tested at: 940 nM top
Notes: 60-bp whole probe
With: salmon DNA 0.4 mg/ml
Relative to: random background probes
Direction: higher = stronger binding
Measurement: fitted relative affinity
Shared flanks, not repeated: GCCTAGCAC … GTCTTGATTCGCTTGACGCTGCTG
Sequence = GACGGTTTCCTTTCCCCGACGTGCTAG; result = 2.68 z-score
Sequence = TTAGGTTTCGGGAATGGGTTAGTGCTA; result = 8.33 z-score
Sequence = GACGGTATCGAATTTCGGGACGTGCTA; result = 2.61 z-score
Sequence = TTAGTTCTCCTTATCCTTTAGTGCTAG; result = 1.49 z-score
Sequence = GACGAACAGGGGTATCGAGACGTGCTA; result = 0.68 z-score
Sequence = CTGGTTTTACTTTCTATCTCGTGCTAG; result = 3.15 z-score
Sequence = TTAGATTTCAGTTTAGATTAGTGCTAG; result = 1.04 z-score
Sequence = GACGGACTGGACTTTCGTGACGTGCTA; result = -0.146 z-score
Sequence = TCAAGCTTCCATTTTCTACTGTGCTAG; result = 0.807 z-score
Sequence = TTAGGTTTCCTTCTCCTTCAGTGCTAG; result = 1.88 z-score
Sequence = TCAGGACTGCTTCTCCTTTAGTGCTAG; result = -0.0379 z-score
Sequence = TTAGGACTGGGACTGGGTTCGTGCTAG; result = -0.475 z-score
Sequence = GACTGACTGGACTTTCGGGACGTGCTA; result = 0.647 z-score
Sequence = TTAGTTTTCAGTTCCGATTAGTGCTAG; result = 2.61 z-score
Sequence = TTAGAACGGAGTTTCGATTAGTGCTAG; result = 6.78 z-score
Sequence = TCATGCTTGCGTCTGGGACTGTGCTAG; result = -0.311 z-score
Sequence = AACAATATATATATTATATAGTGCTAG; result = -0.153 z-score
Sequence = GACGGTATCCTGTTCCTGACGTGCTAG; result = 0.207 z-score

Block 3
Target: CCNB3, cyclin fold, Cln2 fusion (human)
Technique: yeast growth competition, sequencing
Matrix: yeast
Notes: strong parent motif
Relative to: not given
Direction: higher = stronger binding
Measurement: normalised enrichment score
Parent: SCAPER docking peptide (human); SNARRSLNFGGST; partner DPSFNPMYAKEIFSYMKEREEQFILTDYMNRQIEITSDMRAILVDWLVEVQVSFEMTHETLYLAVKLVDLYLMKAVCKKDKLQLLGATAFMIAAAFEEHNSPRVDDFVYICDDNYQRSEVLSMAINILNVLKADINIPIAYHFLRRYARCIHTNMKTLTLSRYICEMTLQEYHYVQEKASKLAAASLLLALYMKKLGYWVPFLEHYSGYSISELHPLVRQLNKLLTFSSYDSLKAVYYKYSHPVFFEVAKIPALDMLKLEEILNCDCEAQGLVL
Change = L7N; result = -0.0211
Change = F9L; result = 0.382
Change = R4C; result = 0.513
Change = G10V; result = -0.171
Change = N8T; result = 0.845
Change = S12Q; result = 1.33
Change = N8Q; result = 0.914
Change = G10H; result = 0.923
Change = N8A; result = 0.47
Change = N8K; result = 1.04
Change = S12H; result = 1.51
Change = N8F; result = 1.2
Change = R5N; result = -0.296
Change = R4Y; result = -0.00579
Change = S1G; result = 1.36
Change = R5Q; result = 0.421
Change = A3M; result = 0.543
Change = R5K; result = 0.818
Change = S12M; result = 0.901
Change = S6A; result = 1.37
Change = R4H; result = 0.354
Change = G11S; result = 1.14
Change = S12I; result = 1.43
Change = A3C; result = 1.74
Change = T13A; result = 1.33

Block 4
Target: Ras GTPase-activating protein-binding protein 1, RRM domain (G3BP1, Homo sapiens, UniProt Q13283)
Chain of UniProt Q13283 (whole entry, looked up): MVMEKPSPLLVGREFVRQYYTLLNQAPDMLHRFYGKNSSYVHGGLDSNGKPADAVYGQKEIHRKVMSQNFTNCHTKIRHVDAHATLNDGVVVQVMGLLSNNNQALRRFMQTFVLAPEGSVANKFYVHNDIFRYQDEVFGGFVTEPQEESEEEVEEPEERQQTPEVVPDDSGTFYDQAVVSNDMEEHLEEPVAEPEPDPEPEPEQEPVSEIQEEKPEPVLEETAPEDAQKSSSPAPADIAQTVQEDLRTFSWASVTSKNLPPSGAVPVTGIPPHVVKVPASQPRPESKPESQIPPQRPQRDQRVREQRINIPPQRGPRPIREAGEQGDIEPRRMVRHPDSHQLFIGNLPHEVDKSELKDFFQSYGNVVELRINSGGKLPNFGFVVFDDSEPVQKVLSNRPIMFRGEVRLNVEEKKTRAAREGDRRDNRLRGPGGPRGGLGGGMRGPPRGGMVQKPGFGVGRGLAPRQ
Technique: RNA Bind-n-Seq
Molecule type: RNA
Matrix: in vitro
Tested at: 1 µM
Notes: whole 134-nt RNA, ends assumed
With: 150 mM KCl
Relative to: input library
Direction: higher = stronger binding
Measurement: log2 enrichment
Shared flanks, not repeated: GGGAGUUCUACAGUCCGACGAUC … UGGAAUUCUCGGGUGUCAAGG
Sequence = CUCAAGUCCUGUGCUACACAUCGUAUGUACCGAAUCGGGUUGGGUUGGUUGGGAAAGUAUUAUGUUACGCCGUUCGGAUCUGCACUUCCA; result = -0.027
Sequence = UGGCCCUGGUGGCAUGCGGGGAGGAAGAGGUGGCCUCAUGGAUCGUGGUGGUCCCGGUGGAAUGUUCAGAGGUGGCCGUGGUGGCGACAG; result = 1.58
Sequence = UGGCGCUGUCCUGGACUUGAUGGGGGAUGAAGCCCAGAACCUGACGAGGGGCCGGCAGCAGCUCAAGUGGUGAGUGAUCGAGUGAGCCGC; result = -0.434
Sequence = UAACUUUAGAUGAGGAUCUGAUGGAUAUGGCAGUGGACGUGGAUUUGGGGAUGGCUAUAAUGGGUAUGGAGGAGGACCUGGAGGUGGCAA; result = -0.928
Sequence = CACAGACAACACGCACCCACACAGACAAAGAGGGAAGGGGUUGGGAUGGGGACAGGGUGCACAGCAGGGCGGGGUAGGACCCCAGCCCCU; result = -0.162
Sequence = CACAGACAACACGCACCCACACAGACCCAGAGGGAAGGGGUUGGGAUGGGGACAGGGUGCACAGCAGGGCGGGGUAGGACCCCAGCCCCU; result = 0.779
Sequence = UGUGCUACACAUCGUAUGUACCGAAUCGGGGUUUUUUUGGGGUUUUUUUGGGGUUUUUGGGGAAAGUAUUAUGUUACGCCGUUCGGAUCU; result = 0.835
Sequence = UUCAUUCUUACUUUGAAUCUAGGAUUUUAUGGAAGACCUUGGGUUAUGGAACAGAGAAAAGAACUCUUUAGAAGGUAAAUCUUCAUUAUA; result = -0.229
Sequence = ACCACUGCUACAGUCACCACCACCCAGGCCUCCUAUGCAGCUCAGUCUGCAUAUGGCACUCAGCCUGCUUAUCCAGCCUAUGGGCAGCAG; result = -0.357
Sequence = UCCUCAAGUCCUGUGCUACACAUCGUAUGUACCGAAUCGGUGGGGUGGUGGAAAGUAUUAUGUUACGCCGUUCGGAUCUGCACUUCCAGC; result = -0.216
Sequence = UCCUGUGCUACACAUCGUAUGUACCGAAUCGGGCCCCCCGGCCCCCCGGGGCCCCCCGGGAAAGUAUUAUGUUACGCCGUUCGGAUCUGC; result = -0.414
Sequence = AGUCCUGUGCUACACAUCGUAUGUACCGAAUCGGAAAAGGGGAAAAGGGGAAAAGGGAAAGUAUUAUGUUACGCCGUUCGGAUCUGCACU; result = 0.154
Sequence = ACCAUGCAGGUGGGCAUCUUUGGGAAGUGGGGCAAGGGGGGGAUAGGGAGGGGGGUAACACUUUGGGAACAGGUGUUCCCAGGUCGUUUC; result = 0.587
Sequence = AGUCCUGUGCUACACAUCGUAUGUACCGAAUCGGGUUUGGGAAAAAAAGGGUUUGGGAAAGUAUUAUGUUACGCCGUUCGGAUCUGCACU; result = 0.387

Block 5
Target: Sal-like protein 4, full length isoform B (SALL4, Homo sapiens, UniProt Q9UJQ4-2, residues 1-616)
Technique: universal PBM
Molecule type: double-stranded DNA, one strand shown
Matrix: in vitro
Tested at: not given
Notes: 8-mer, flanks averaged, mean of replicates
Direction: higher = stronger binding
Measurement: E-score
Sequence = ATCCCTTG; result = -0.0853
Sequence = ACTACCGC; result = -0.0015
Sequence = CTGGCAAG; result = -0.0956
Sequence = ACGAACCA; result = -0.0491
Sequence = AATAAGAC; result = 0.241
Sequence = AAATCGGC; result = -0.153
Sequence = CTGCGCAG; result = -0.161
Sequence = ACAAGGAT; result = 0.213
Sequence = ATCCACTG; result = -0.111
Sequence = ATAGGTAA; result = 0.257
Sequence = ACTGCGTG; result = -0.167
Sequence = GTACGAGA; result = 0.083
Sequence = CCCTCCTC; result = -0.255
Sequence = TTACGTAA; result = 0.22
Sequence = GCGTACGC; result = -0.0487
Sequence = GGGGAGTA; result = -0.128
Sequence = ATTTTACC; result = 0.325
Sequence = ACTCCTGC; result = 0.0346
Sequence = ATCGAGGC; result = -0.115

Block 6
Target: FOSL2, bZIP domain (human)
Technique: DHFR protein complementation
Matrix: yeast
Notes: single substitutions, most at no-binding floor
Relative to: wild-type JUN-FOS pair
Direction: higher = stronger binding
Measurement: binding fitness
Parent: JUN, bZIP domain (human); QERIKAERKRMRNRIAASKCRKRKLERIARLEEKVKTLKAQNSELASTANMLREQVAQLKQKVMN; partner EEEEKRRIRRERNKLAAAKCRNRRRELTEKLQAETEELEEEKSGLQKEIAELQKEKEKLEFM
Change = M51G; result = 0.0153 natural log
Change = E54D; result = -0.0666 natural log
Change = S47K; result = 0.212 natural log
Change = K34S; result = -0.0033 natural log
Change = N42C; result = 0.154 natural log
Change = A40W; result = -0.161 natural log
Change = K34T; result = 0.0421 natural log
Change = A40S; result = 0.0652 natural log
Change = L52S; result = -1.3 natural log
Change = A40D; result = 0.091 natural log
Change = K34R; result = 0.185 natural log
Change = M51N; result = 0.0779 natural log

For quick reference, copied from above (block 6):
Change = E54D; result = -0.0666 natural log
Change = A40S; result = 0.0652 natural log
Change = A40W; result = -0.161 natural log
Change = S47K; result = 0.212 natural log
Change = K34R; result = 0.185 natural log
Change = L52S; result = -1.3 natural log
